Measured values from different studies.
Every numbered part comes from another study and shows a few of its results, in no order.
Sequence of UniProt P19525 (whole entry, looked up): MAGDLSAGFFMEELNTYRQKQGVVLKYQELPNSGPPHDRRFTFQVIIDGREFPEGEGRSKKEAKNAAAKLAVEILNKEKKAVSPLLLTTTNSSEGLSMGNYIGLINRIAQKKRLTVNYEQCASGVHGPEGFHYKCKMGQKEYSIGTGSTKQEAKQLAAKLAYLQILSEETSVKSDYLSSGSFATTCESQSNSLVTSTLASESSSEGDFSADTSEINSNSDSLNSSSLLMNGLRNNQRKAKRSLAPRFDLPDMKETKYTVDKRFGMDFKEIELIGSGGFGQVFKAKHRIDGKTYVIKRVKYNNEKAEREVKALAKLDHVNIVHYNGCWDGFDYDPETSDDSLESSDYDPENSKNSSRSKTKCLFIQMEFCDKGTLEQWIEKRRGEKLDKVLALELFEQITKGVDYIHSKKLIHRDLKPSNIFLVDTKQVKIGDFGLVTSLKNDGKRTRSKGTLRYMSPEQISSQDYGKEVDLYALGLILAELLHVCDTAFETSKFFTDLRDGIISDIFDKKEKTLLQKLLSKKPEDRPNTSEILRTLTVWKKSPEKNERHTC
Sequence of UniProt Q86Y07 (whole entry, looked up): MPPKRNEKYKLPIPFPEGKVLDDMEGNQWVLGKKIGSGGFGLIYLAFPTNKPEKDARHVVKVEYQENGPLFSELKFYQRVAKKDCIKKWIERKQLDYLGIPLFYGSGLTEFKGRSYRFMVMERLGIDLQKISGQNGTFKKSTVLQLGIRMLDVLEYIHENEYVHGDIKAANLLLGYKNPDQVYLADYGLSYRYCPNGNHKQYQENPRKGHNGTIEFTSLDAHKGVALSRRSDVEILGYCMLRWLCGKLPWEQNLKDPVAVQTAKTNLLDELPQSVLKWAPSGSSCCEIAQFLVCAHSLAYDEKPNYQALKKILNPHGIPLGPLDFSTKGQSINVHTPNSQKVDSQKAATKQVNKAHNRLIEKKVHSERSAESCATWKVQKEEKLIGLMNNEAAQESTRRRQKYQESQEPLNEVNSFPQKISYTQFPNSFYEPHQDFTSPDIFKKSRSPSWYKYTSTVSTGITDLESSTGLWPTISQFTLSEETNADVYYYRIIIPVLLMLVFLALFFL
Sequence of UniProt Q8IVW4 (whole entry, looked up): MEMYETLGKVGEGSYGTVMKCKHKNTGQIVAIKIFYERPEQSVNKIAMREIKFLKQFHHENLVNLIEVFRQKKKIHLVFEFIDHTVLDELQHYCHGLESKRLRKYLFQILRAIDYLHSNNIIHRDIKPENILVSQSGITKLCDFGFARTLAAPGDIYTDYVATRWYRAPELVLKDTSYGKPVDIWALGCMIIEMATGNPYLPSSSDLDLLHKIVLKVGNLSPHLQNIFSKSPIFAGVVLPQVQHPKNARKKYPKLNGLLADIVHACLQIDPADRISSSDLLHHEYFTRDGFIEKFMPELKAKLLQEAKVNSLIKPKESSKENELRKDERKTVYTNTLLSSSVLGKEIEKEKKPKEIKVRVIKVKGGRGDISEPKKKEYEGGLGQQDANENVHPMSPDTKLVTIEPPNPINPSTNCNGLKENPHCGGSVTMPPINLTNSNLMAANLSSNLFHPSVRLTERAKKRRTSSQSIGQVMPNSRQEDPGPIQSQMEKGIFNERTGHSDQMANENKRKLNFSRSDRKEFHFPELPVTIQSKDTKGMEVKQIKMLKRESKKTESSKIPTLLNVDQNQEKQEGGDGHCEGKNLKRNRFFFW
Sequence of UniProt Q9Y5S2 (whole entry, looked up): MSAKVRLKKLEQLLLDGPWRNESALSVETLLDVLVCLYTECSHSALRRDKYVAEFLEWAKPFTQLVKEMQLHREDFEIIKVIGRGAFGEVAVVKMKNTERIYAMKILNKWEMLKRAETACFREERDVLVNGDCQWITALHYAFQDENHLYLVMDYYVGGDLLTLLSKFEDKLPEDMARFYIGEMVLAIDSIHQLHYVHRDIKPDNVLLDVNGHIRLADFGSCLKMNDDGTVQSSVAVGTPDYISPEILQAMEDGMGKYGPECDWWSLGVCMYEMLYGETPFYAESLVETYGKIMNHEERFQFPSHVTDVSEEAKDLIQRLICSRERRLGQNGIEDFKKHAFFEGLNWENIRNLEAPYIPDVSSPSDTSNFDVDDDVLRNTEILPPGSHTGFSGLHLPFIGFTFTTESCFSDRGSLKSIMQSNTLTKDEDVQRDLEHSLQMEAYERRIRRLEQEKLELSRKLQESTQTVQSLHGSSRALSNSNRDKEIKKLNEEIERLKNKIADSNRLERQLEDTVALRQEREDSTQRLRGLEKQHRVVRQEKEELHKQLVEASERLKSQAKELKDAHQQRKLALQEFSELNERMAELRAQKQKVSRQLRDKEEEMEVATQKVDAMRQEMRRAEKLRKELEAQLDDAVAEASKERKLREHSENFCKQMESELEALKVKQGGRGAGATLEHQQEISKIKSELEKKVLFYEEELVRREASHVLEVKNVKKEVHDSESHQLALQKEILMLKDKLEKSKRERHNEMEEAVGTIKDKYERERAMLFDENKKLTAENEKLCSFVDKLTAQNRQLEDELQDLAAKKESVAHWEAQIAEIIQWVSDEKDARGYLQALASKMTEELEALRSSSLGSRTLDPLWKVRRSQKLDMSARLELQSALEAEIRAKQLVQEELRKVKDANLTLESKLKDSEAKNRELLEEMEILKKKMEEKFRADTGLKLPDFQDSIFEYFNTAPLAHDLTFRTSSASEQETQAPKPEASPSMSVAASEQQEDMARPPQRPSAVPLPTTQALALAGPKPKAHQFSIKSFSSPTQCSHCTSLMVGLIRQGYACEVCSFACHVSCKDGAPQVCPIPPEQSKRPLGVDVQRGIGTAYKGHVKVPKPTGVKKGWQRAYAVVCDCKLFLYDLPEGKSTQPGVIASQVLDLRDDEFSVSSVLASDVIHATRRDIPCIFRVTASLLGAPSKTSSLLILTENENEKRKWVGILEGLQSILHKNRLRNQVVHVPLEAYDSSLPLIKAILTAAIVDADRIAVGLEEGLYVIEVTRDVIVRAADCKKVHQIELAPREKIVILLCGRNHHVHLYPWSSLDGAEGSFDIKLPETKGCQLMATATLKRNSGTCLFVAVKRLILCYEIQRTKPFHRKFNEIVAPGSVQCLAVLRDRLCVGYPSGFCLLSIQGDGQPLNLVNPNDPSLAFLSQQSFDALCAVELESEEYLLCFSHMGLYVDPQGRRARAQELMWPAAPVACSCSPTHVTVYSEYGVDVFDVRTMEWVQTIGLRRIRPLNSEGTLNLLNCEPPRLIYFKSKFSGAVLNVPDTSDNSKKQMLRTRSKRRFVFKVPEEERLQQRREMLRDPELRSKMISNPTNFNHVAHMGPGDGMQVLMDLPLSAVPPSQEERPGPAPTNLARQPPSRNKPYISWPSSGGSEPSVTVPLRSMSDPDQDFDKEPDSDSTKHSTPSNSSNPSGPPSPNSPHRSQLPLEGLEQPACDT
Sequence of UniProt Q9HBY8 (whole entry, looked up): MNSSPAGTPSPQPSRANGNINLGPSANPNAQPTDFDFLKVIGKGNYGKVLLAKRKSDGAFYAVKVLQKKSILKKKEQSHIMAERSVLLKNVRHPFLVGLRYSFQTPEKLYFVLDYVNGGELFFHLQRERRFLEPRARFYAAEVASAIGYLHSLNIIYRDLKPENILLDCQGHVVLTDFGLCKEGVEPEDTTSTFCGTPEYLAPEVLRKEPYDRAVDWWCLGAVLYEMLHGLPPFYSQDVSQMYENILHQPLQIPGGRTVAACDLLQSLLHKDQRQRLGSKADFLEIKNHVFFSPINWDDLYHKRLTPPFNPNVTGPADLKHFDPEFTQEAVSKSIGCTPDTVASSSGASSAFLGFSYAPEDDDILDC

Block 1
Target: Interleukin-1 receptor-associated kinase 1 (IRAK1, Homo sapiens, UniProt P51617)
Sequence of UniProt P51617 (whole entry, looked up): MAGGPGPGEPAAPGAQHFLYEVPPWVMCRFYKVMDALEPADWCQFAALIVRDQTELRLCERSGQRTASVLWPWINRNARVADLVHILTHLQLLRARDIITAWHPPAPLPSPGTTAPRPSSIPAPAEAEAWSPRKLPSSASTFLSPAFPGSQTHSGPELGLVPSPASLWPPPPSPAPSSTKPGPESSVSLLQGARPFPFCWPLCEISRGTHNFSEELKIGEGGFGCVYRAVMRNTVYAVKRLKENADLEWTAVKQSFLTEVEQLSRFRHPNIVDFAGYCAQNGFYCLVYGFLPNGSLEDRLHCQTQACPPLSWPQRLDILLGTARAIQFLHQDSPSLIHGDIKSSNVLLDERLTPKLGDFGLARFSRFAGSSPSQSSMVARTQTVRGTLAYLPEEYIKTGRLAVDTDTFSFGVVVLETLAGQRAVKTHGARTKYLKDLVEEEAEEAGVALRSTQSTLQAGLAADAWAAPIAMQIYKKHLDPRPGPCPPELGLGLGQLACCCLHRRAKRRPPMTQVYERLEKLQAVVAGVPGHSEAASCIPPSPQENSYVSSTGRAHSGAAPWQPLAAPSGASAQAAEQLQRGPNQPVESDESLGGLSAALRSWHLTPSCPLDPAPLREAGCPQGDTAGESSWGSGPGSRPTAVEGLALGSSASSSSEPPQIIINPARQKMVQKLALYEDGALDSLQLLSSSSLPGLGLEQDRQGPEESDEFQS
Read-out: enzyme activity
Action: inhibitor
Tested at: 0.5 µM
Baseline: control
Compound | remaining activity
CCN1/C(=C/C(C)=O)Sc2ccc(OC)cc21 | 114%
Cn1cc(/C=C2\C(=O)Nc3ccc(S(N)(=O)=O)cc32)c2ccccc21 | 14.2%
CS(=O)(=O)CCNCc1ccc(-c2ccc3ncnc(Nc4ccc(OCc5cccc(F)c5)c(Cl)c4)c3c2)o1 | 98.8%
Cc1ccc(NC(=O)c2ccc(CN3CCN(C)CC3)cc2)cc1Nc1nccc(-c2cccnc2)n1 | 99.7%
Cn1cnc2cc3c(Nc4cccc(Br)c4)ncnc3cc21 | 80.5%
CC(=O)O/N=C1/C(c2c(O)[nH]c3cc(Br)ccc23)=Nc2ccccc21 | 67.4%
COc1cc2ncc(-c3ccccc3)nc2cc1OC | 98.4%
O=C1NC(=O)/C(=C/c2ccc3nccnc3c2)S1 | 85.5%
COc1cc2ncnc(N3CCN(C(=O)Nc4ccc(Oc5ccccc5)cc4)CC3)c2cc1OC | 116%
O=c1cc(N2CCOCC2)oc2c1ccc1ccccc12 | 112%
Nc1[nH]nc2nnc(-c3c(-c4ccccc4)nn4ccccc34)cc12 | 105%
O=C(Nc1ccc(Cl)cc1)c1ccccc1NCc1ccncc1 | 117%
COc1ccc(Cl)cc1NC(=O)Nc1cc(C)nc2ccccc12 | 91.2%
COc1ccc(-c2cnc3c(-c4ccsc4)cnn3c2)cc1 | 94%
CC(C)[C@H](CO)Nc1nc(Nc2cccc(Cl)c2)c2ncn(C(C)C)c2n1 | 109%
CCOc1cc2ncnc(Nc3cccc(Br)c3)c2cc1OCC | 95.1%
C[S+]([O-])c1ccc(-c2nc(-c3ccncc3)c(-c3ccc(F)cc3)[nH]2)cc1 (stereo not drawn) | 129%
CN(C)CCCn1cc(C2=C(c3c[nH]c4ccccc34)C(=O)NC2=O)c2ccccc21 | 91.1%
Cc1nc(Nc2ncc(C(=O)Nc3c(C)cccc3Cl)s2)cc(N2CCN(CCO)CC2)n1 | 98.2%
COc1cc2ncnc(Nc3ccc(OCc4ccccc4)cc3)c2cc1OC | 97.4%
CCC(=O)Nc1ccc2ncnc(Nc3cccc(Br)c3)c2c1 | 92.7%
CC(C)c1nn(-c2c(Cl)cccc2Cl)c2nc(Cc3ccc(OCCO)cc3)[nH]c(=O)c12 | 99.2%

Block 2
Target: Eukaryotic initiation factor 4A-III (Homo sapiens, UniProt P38919)
Sequence of UniProt P38919 (whole entry, looked up): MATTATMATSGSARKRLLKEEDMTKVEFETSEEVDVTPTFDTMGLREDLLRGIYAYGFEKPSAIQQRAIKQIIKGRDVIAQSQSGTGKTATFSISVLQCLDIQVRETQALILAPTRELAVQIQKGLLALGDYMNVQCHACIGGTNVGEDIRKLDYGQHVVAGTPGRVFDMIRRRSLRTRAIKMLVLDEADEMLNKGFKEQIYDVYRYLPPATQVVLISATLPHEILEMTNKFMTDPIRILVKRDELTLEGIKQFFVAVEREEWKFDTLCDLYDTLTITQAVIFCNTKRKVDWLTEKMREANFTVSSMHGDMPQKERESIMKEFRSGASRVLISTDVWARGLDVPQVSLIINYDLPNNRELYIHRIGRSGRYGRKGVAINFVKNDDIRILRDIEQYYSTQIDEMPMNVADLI
Read-out: RNA clamping
Method: fluorescence polarization
Tested at: concentration not given
Added: FAM-labelled poly r(AG)8 RNA
Structure (SMILES) | fluorescence polarization change [mP]
C#CCNC(=O)COc1cc(OC)c2c(c1)O[C@@]1(c3ccc(OC)cc3)[C@H](c3ccccc3)c3c(nc(-c4ccccc4)[nH]c3=O)[C@@]21O | 8.8
COc1ccc([C@@]23Oc4cc(OS(=O)(=O)c5ccc(C)cc5)cc(OC)c4[C@]2(O)c2nc(-c4ccccc4)n(Cc4ccccc4)c(=O)c2[C@H]3c2ccccc2)cc1 | 0.8
COCCN[C@@]12C(=O)[C@H](C(=O)N(C)C)[C@@H](c3ccccc3)[C@]1(c1ccc(OC)cc1)Oc1cc(OC)cc(OC)c12 | 1.9
COC(=O)[C@@H]1[C@@H](c2ccccc2)[C@]2(c3ccc(OC)cc3)Oc3cc(OC)cc(OC)c3[C@@]23OC(c2cccc(OC)c2)=N[C@@]13O | 0.4
COc1ccc([C@@]23Oc4cc(OC)cc(OC)c4[C@]2(O)C2=C(C(=O)N4CCC[C@H]4O2)[C@H]3c2ccccc2)cc1 | 18.5
COCCN[C@@]12/C(=N/O)C[C@@H](c3ccccc3)[C@]1(c1ccc(OC)cc1)Oc1cc(OC)cc(OC)c12 | 4.6
C=CCN[C@@]12C(=O)[C@H](C(=O)OC)[C@@H](c3ccccc3)[C@]1(c1ccc(OC)cc1)Oc1cc(OC)cc(OC)c12 | -0.4

Block 3
Target: Translocator protein (Tspo, Rattus norvegicus, UniProt P16257)
Sequence of UniProt P16257 (whole entry, looked up): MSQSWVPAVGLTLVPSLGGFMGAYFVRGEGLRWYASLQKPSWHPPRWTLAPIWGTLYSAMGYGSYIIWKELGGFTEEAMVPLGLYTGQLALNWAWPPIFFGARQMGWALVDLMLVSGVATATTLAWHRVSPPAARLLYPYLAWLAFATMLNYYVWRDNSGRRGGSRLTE
Read-out: radioligand binding
Method: radioligand displacement
Tested at: 10 µM
Compound | inhibition
Nc1nc(NCc2ccccc2)nc(-c2ccccc2CO)n1 | 12.9%
COc1cc(-c2cn(C3CCc4c(F)cccc4N(CC(F)(F)F)C3=O)nn2)ccc1-n1cnc(C)c1 (stereo not drawn) | 8.82%
CC(C)(O)c1cncc(-c2nc3ccc(F)cc3n2C2CC2)c1 | -38%
CCC(=O)N[C@H]1CC[C@@H](C(=O)N(C)c2ccc(-c3nc4ccccc4o3)cc2)C1 | 3.17%
CS(=O)(=O)NCC[C@H](NC(=O)c1cncc2c1cnn2-c1ccc(F)cc1)c1ccnc(S(C)(=O)=O)c1 | -5.04%
Cc1cc2c(-c3ccco3)cnc(N[C@H]3CCN(C)C[C@@H]3C(=O)NC3CCCCC3)c2[nH]c1=O | -8.18%
COCc1nc2cnc3cc(-c4c(C)noc4C)c(OC[C@H]4CCNC4)cc3c2n1[C@H](C)c1ccccc1 | 7.75%
C[C@@]1(Cc2ccc(C#N)cc2)C(=O)N(c2cc(Cl)cc(Cl)c2)c2ncc(C(=O)NC3(c4nc(C5CCC5)no4)CC3)n21 | -15.2%
Cn1nc(C(F)(F)F)cc1-c1cnc(N2CCc3cc(S(=O)(=O)Nc4c(F)cc(Cl)cc4F)cc(N4CCCC4=O)c32)nc1 | -9.93%
CNC(=O)c1cc(C(=O)N[C@H]2[C@@H]3COC[C@@H]32)cc2c1O[C@@H](CF)[C@@H]2c1ccccc1 | -12.5%
Cc1c(NC(=O)c2cc(C(N)=O)nc3cc(F)ccc23)c(C(F)(F)F)nn1Cc1ccc(C#N)cc1 | -1.8%
CN1CCN(c2ccnc(NCCc3ccccc3)n2)CC1 | -0.34%
CO[C@H]1CC[C@H](CNc2ccc(S(=O)(=O)NC(=O)c3ccc(N4CCN(CC5=C(c6ccc(Cl)cc6)CC(C)(C)CC5)CC4)cc3Oc3cnc4[nH]ccc4c3)cc2[N+](=O)[O-])CC1 | 41.5%

Block 4
Structure (SMILES): Cc1ccc(NC(=O)c2ccnc(C(F)(F)F)c2)cc1-c1cc(OCCO)nc(N2CCOCC2)c1
Tested at: 1 µM
target | method | item | notes | baseline | remaining binding [%]
cAMP-dependent protein kinase catalytic subunit alpha (PRKACA, Homo sapiens, UniProt P17612) | competitive binding, scanMAX |  | PKAC-alpha, 1000 nM |  | 71
Non-receptor tyrosine-protein kinase TNK1 (TNK1, Homo sapiens, UniProt Q13470) | competitive binding panel |  |  | vehicle | 100
Proto-oncogene tyrosine-protein kinase Src (SRC, Homo sapiens, UniProt P12931) | competitive binding panel |  |  | vehicle | 100
Cyclin-dependent kinase-like 3 (CDKL3, Homo sapiens, UniProt Q8IVW4) | competitive binding panel |  |  | vehicle | 93
Interferon-induced, double-stranded RNA-activated protein kinase (EIF2AK2, Homo sapiens, UniProt P19525) | competitive binding, scanMAX |  | PRKR, 1000 nM |  | 97
Serine/threonine-protein kinase Sgk2 (SGK2, Homo sapiens, UniProt Q9HBY8) | competitive binding panel |  |  | vehicle | 93
Cyclin-dependent kinase 11B (CDK11B, Homo sapiens, UniProt P21127) | competitive binding panel | CDC2L1 |  | vehicle | 45
Serine/threonine-protein kinase MRCK beta (CDC42BPB, Homo sapiens, UniProt Q9Y5S2) | competitive binding, scanMAX |  | MRCKB, 1000 nM |  | 88
Mitogen-activated protein kinase kinase kinase 12 (MAP3K12, Homo sapiens, UniProt Q12852) | competitive binding, scanMAX |  | DLK, 1000 nM |  | 100
BDNF/NT-3 growth factors receptor (NTRK2, Homo sapiens, UniProt Q16620) | competitive binding |  | TRKB |  | 100
Tyrosine-protein kinase Lyn (LYN, Homo sapiens, UniProt P07948) | competitive binding panel |  |  | vehicle | 78
Serine/threonine-protein kinase VRK2 (VRK2, Homo sapiens, UniProt Q86Y07) | competitive binding panel |  |  | vehicle | 100

Repeated from above (block 3):
Compound | inhibition
COCc1nc2cnc3cc(-c4c(C)noc4C)c(OC[C@H]4CCNC4)cc3c2n1[C@H](C)c1ccccc1 | 7.75%
CN1CCN(c2ccnc(NCCc3ccccc3)n2)CC1 | -0.34%
Cn1nc(C(F)(F)F)cc1-c1cnc(N2CCc3cc(S(=O)(=O)Nc4c(F)cc(Cl)cc4F)cc(N4CCCC4=O)c32)nc1 | -9.93%
CC(C)(O)c1cncc(-c2nc3ccc(F)cc3n2C2CC2)c1 | -38%
